Assay results gathered from unrelated publications.
Lines come from different studies, so protocols differ.
SALL4 full length isoform A: Sal-like protein 4, full length isoform A (SALL4, Homo sapiens, UniProt Q9UJQ4, residues 1-1053)
Chain of UniProt Q9UJQ4 (whole entry, looked up): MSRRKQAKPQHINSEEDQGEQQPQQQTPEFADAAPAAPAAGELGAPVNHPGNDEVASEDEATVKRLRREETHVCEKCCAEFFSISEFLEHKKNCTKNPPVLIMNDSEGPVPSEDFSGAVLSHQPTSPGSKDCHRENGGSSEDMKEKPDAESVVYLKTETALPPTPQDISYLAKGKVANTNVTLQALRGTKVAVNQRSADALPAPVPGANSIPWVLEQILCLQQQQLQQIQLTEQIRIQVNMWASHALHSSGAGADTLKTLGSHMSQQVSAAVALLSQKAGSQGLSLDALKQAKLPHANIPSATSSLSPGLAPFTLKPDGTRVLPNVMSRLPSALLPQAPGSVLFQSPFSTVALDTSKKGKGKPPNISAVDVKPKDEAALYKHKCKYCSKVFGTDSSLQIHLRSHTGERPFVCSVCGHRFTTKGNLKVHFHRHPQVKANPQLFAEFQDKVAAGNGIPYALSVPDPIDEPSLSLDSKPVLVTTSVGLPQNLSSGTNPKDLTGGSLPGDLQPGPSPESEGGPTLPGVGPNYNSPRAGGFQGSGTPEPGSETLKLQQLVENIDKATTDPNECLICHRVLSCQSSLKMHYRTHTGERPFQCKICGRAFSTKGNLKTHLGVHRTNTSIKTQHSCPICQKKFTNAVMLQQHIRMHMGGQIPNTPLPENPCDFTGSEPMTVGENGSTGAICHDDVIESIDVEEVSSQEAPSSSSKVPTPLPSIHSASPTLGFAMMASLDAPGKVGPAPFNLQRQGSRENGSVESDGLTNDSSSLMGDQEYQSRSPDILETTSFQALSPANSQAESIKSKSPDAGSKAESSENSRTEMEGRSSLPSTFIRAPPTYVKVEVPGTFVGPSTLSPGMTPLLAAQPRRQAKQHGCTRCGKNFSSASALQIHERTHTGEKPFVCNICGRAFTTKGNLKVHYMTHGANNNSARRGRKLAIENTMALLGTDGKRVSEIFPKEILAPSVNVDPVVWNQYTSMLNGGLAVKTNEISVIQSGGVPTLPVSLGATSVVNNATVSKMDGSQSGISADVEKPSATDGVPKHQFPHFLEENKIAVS
PHO4 full length, GST-tagged: Phosphate system positive regulatory protein PHO4, full length, GST-tagged (PHO4, Saccharomyces cerevisiae, UniProt P07270, residues 1-312)
Chain of UniProt P07270 (whole entry, looked up): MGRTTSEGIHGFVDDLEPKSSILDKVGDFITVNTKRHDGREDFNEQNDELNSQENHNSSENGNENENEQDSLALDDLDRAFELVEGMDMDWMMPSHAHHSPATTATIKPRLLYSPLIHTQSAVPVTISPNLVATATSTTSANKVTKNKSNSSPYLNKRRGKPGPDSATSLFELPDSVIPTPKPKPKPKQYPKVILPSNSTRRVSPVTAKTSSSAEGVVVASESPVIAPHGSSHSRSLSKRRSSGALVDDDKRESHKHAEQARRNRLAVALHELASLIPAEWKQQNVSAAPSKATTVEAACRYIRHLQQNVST

ACCTATTA  E-score (SALL4 full length isoform A; universal PBM; double-stranded DNA, one strand shown, in vitro; 600 nM, 8-mer, flanks averaged, mean of replicates; higher = stronger binding): 0.174
GGTTGGTGTGGTTGG (2'F-ANA at 1 2 6 7 9 11 12 15)  mean fluorescence intensity (Prothrombin, mature alpha-thrombin (F2, Homo sapiens, UniProt P00734); aptamer microarray, sandwich; DNA with 2'F-ANA, in vitro; 200 nM, whole 15-mer aptamer, many near background, added: Cy3 exosite-II aptamer, 400 nM; higher = stronger binding): 215 a.u.
GAGATTTAGCCTTTGACCGTGCCGATAGTTGTTTTCGTCTTGATTCGCTTGACGCTGCTG  fluorescence intensity (PHO4 full length, GST-tagged; competition protein-binding microarray; double-stranded DNA, one strand shown, in vitro; 2 µM, whole 60-bp probe, lowest competitor level, added: Cbf1 competitor, 0.05 µM; higher = stronger binding): 6480 a.u.
PhoQ, residues 284 288 289 292 302 303 SSLVEF  fold induction (PhoP, residues 12 14 15 18 19 SPWRL (Escherichia coli, UniProt P23836); Sort-seq, item: YFP reporter; E. coli; PhoQ-PhoP variant library, added: 10 µM Mg2+; relative to: high Mg2+ state, higher = stronger signaling): 1.14
GTATTTGA  E-score (Histone acetyltransferase KAT6A, winged helix 1, GST fusion (KAT6A, Homo sapiens, UniProt Q92794, residues 1-85); protein binding microarray; double-stranded DNA, one strand shown, in vitro; not given, 8-mer, flanks averaged, mean of 2 arrays, mostly near background; relative to: not given, higher = stronger binding): -0.0833
CGGGATCC  E-score (SALL4 full length isoform A; universal PBM; double-stranded DNA, one strand shown, in vitro; 600 nM, 8-mer, flanks averaged, mean of replicates; higher = stronger binding): -0.28
CTTTCCCGATCTTGTTGCGTGGGTGTAGCACATTTGGTCTTGATTCGCTTGACGCTGCTG  fluorescence intensity (PHO4 full length, GST-tagged; competition protein-binding microarray; double-stranded DNA, one strand shown, in vitro; 2 µM, whole 60-bp probe, lowest competitor level, added: Cbf1 competitor, 0.05 µM; higher = stronger binding): 6800 a.u.
GACCGCGA  E-score (Histone acetyltransferase KAT6A, winged helix 2, GST fusion (KAT6A, Homo sapiens, UniProt Q92794, residues 85-181); protein binding microarray; double-stranded DNA, one strand shown, in vitro; not given, 8-mer, flanks averaged, mean of 2 arrays, mostly near background; relative to: not given, higher = stronger binding): 0.218

For quick reference, copied from above:
GGTTGGTGTGGTTGG (2'F-ANA at 1 2 6 7 9 11 12 15)  mean fluorescence intensity (Prothrombin, mature alpha-thrombin (F2, Homo sapiens, UniProt P00734); aptamer microarray, sandwich; DNA with 2'F-ANA, in vitro; 200 nM, whole 15-mer aptamer, many near background, added: Cy3 exosite-II aptamer, 400 nM; higher = stronger binding): 215 a.u.
